Published values gathered from unrelated publications.
Protocols differ between the studies behind these lines. Numbers after ± are the reported error.

| SMILES | assay | test system | setting | Cmax |
| --- | --- | --- | --- | --- |
| CC(C)=CCC[C@](C)(O[C@@H]1O[C@H](CO)[C@@H](O)[C@H](O)[C@H]1O)[C@H]1CC[C@]2(C)[C@@H]1[C@H](O)C[C@@H]1[C@@]3(C)CC[C@H](O)C(C)(C)[C@@H]3[C@@H](O[C@@H]3O[C@H](CO)[C@@H](O)[C@H](O)[C@H]3O)C[C@]12C |  | Sprague Dawley rats, male, plasma | oral, 25 mg/kg, aqueous solution, together with: co-dosed pure ginsenoside mixture | 0.5 ± 0.14 µg/mL |
| CCc1cc2c(cc1N1CCC(N3CCOCC3)CC1)C(C)(C)c1[nH]c3cc(C#N)ccc3c1C2=O |  | healthy subjects, matched to moderate impairment, plasma, total | oral, 300 mg single, fed | 0.0943 µg/mL |
| CCCC[C@H](NC(C)=O)C(=O)N[C@H]1CCC(=O)NC[C@@H](C(=O)N[C@@H](Cc2c[nH]c3ccccc23)C(N)=O)NC(=O)[C@H](CCCNC(=N)N)NC(=O)[C@@H](Cc2ccccc2)NC(=O)[C@H](Cc2c[nH]cn2)NC1=O |  | CD Sprague Dawley rat, male, plasma | subcutaneous, 25.0 mg/kg daily, day 14 | 1.14 µg/mL |
| O=C(/C=C/c1ccc(O)c(O)c1)O[C@H](Cc1ccc(O)c(O)c1)C(=O)O | UPLC-MS/MS | Wistar rat, microcirculation dysfunction model, plasma | oral, 100 mg/kg Salvia miltiorrhiza stem-leaf extract FT | 0.0166 ± 0.00577 µg/mL |
| CC(C)=CCC[C@](C)(O[C@@H]1O[C@H](CO[C@@H]2O[C@H](CO)[C@@H](O)[C@H](O)[C@H]2O)[C@@H](O)[C@H](O)[C@H]1O)[C@H]1CC[C@]2(C)[C@@H]1[C@H](O)C[C@@H]1[C@@]3(C)CC[C@H](O[C@@H]4O[C@H](CO)[C@@H](O)[C@H](O)[C@H]4O[C@@H]4O[C@H](CO)[C@@H](O)[C@H](O)[C@H]4O)C(C)(C)[C@@H]3CC[C@]12C |  | Sprague Dawley rat, male, plasma | oral, 86 mg/kg, in frozen ginseng extract | 6.9 ± 1.71 µg/mL |
| CCN(CC)Cc1cc(Nc2ccnc3cc(Cl)ccc23)ccc1O |  | rat, Wistar, male, plasma | oral, 60 mg/kg, together with: myricetin 5 mg/kg iv | 1.04 ± 0.122 µg/mL |
| CC(C)=CCC[C@](C)(O[C@@H]1O[C@H](CO)[C@@H](O)[C@H](O)[C@H]1O)[C@H]1CC[C@]2(C)[C@@H]1[C@H](O)C[C@@H]1[C@@]3(C)CC[C@H](O[C@@H]4O[C@H](CO)[C@@H](O)[C@H](O)[C@H]4O)C(C)(C)[C@@H]3CC[C@]12C |  | Sprague-Dawley rat, plasma | oral, 100 mg/kg of parent ginsenoside, control group, no prebiotic | 0.0203 ± 0.00635 µg/mL |
| C=CC(=O)N1CCC[C@@H](n2nc(-c3ccc(Oc4ccccc4)cc3)c3c(N)ncnc32)C1 |  | Sprague-Dawley rat, male, brain | oral, 55 mg/kg | 0.0404 µg/mL |
| O=C(O)/C=C/c1ccc(O)c(O)c1 | UPLC-MS/MS | Wistar rat, microcirculation dysfunction model, plasma | oral, 100 mg/kg Salvia miltiorrhiza stem-leaf extract FT | 0.0049 ± 0.00019 µg/mL |
| CC(C)=CCC[C@](C)(O[C@@H]1O[C@H](CO)[C@@H](O)[C@H](O)[C@H]1O)[C@H]1CC[C@]2(C)[C@@H]1[C@H](O)C[C@@H]1[C@@]3(C)CC[C@H](O[C@@H]4O[C@H](CO)[C@@H](O)[C@H](O)[C@H]4O[C@@H]4O[C@H](CO)[C@@H](O)[C@H](O)[C@H]4O)C(C)(C)[C@@H]3CC[C@]12C |  | Sprague-Dawley rat, plasma | oral, 2000 mg/kg ginseng extract, diet with NUTRIOSE 5% for 2 weeks | 1.08 ± 0.422 µg/mL |
| C=CC(=O)Nc1cc(Nc2nccc(-c3cn(C)c4ccccc34)n2)c(OC)cc1N(C)CCN(C)C |  | Sprague-Dawley rat, male, plasma | oral, 10 mg/kg, together with: avitinib 30 mg/kg daily for 7 days | 0.0853 ± 0.0239 µg/mL |
| CCN1CCN(c2ccc(Nc3cc(N(C)C(=O)Nc4c(Cl)c(OC)cc(OC)c4Cl)ncn3)cc2)CC1 | LC-MS/MS | juvenile male Crl:WI(Han) rats, plasma | oral gavage, 0.1 mg/kg/day, postnatal day 17 | 0.00299 µg/mL |
| Cn1nnc2c(C(N)=O)ncn2c1=O |  | male athymic rat, intracranial U87 glioma, tumour extracellular fluid | oral, 50 mg/kg, uncorrected microdialysis, together with: after cediranib | 0.6 ± 0.38 µg/mL |
| C=C(c1ccc(C(=O)O)cc1)c1cc2c(cc1C)C(C)(C)CCC2(C)C |  | male Sprague-Dawley rats, plasma | oral, 100 mg/kg, sesame oil vehicle | 8.52 µg/mL |
| O=C(/C=C/c1ccc(O)c(O)c1/C=C/c1ccc(O)c(O)c1)O[C@H](Cc1ccc(O)c(O)c1)C(=O)O | UPLC-MS/MS | Wistar rat, microcirculation dysfunction model, plasma | oral, 100 mg/kg Salvia miltiorrhiza stem-leaf extract FS | 0.0115 ± 0.00439 µg/mL |
| CCOc1cc([C@@H](CS(C)(=O)=O)N2C(=O)c3cccc(NC(C)=O)c3C2=O)ccc1O[C@@H]1O[C@H](C(=O)O)[C@@H](O)[C@H](O)[C@H]1O |  | moderate renal impairment patients, plasma | oral, 30 mg of apremilast | 0.192 µg/mL |

| SMILES | assay | test system | setting | Cmax |
| --- | --- | --- | --- | --- |
| C[C@@H]1O[C@@H](OC[C@H]2O[C@@H](Oc3c(-c4ccc(O)c(O)c4)oc4cc(O)cc(O)c4c3=O)[C@H](O)[C@@H](O)[C@@H]2O)[C@H](O)[C@H](O)[C@H]1O | UPLC-MS/MS | Wistar rat, microcirculation dysfunction model, plasma | oral, 100 mg/kg Salvia miltiorrhiza stem-leaf extract FT | 0.00802 ± 0.0044 µg/mL |
| O=C(NC[C@H]1CN(c2ccc(N3CCOCC3=O)cc2)C(=O)O1)c1ccc(Cl)s1 |  | Sprague-Dawley rat, male, plasma | oral, 10 mg/kg | 0.31 ± 0.0858 µg/mL |
| Cc1nc(Nc2ncc(C(=O)Nc3c(C)cccc3Cl)s2)cc(N2CCN(CCO)CC2)n1 |  | Sprague-Dawley rat, female, plasma | intraperitoneal, 5 mg/kg, together with: rosiglitazone co-dosed | 0.44 ± 0.17 µg/mL |
| C=C1[C@H](CO)[C@@H](O)C[C@@H]1n1cnc2c(=O)[nH]c(N)nc21 |  | male Sprague-Dawley rat, plasma | oral, 1 mg/kg, together with: CdG 1 mg/kg | 0.0626 ± 0.0119 µg/mL |
| CC(C)=CCC[C@](C)(O[C@@H]1O[C@H](CO)[C@@H](O)[C@H](O)[C@H]1O)[C@H]1CC[C@]2(C)[C@@H]1[C@H](O)C[C@@H]1[C@@]3(C)CC[C@H](O)C(C)(C)[C@@H]3[C@@H](O[C@@H]3O[C@H](CO)[C@@H](O)[C@H](O)[C@H]3O[C@@H]3O[C@@H](C)[C@H](O)[C@@H](O)[C@H]3O)C[C@]12C |  | Sprague Dawley rats, male, plasma | oral, 45 mg/kg, aqueous solution, together with: co-dosed pure ginsenoside mixture | 0.6 ± 0.16 µg/mL |
| CS(=O)(=O)c1ccc(-c2cnc(N)c(-c3ccc(C(F)(F)F)nc3)c2)cc1 |  | pregnant female Sprague-Dawley rat, plasma | oral, 3 mg/kg/day, gestation day 17 | 0.876 µg/mL |
| CC(C)=CCC[C@](C)(O[C@@H]1O[C@H](CO)[C@@H](O)[C@H](O)[C@H]1O)[C@H]1CC[C@]2(C)[C@@H]1[C@H](O)C[C@@H]1[C@@]3(C)CC[C@H](O[C@@H]4O[C@H](CO)[C@@H](O)[C@H](O)[C@H]4O[C@@H]4O[C@H](CO)[C@@H](O)[C@H](O)[C@H]4O)C(C)(C)[C@@H]3CC[C@]12C |  | Sprague-Dawley rat, plasma | oral, 100 mg/kg of parent ginsenoside, control group, no prebiotic | 0.089 ± 0.0243 µg/mL |
| C=CC(N)CCC(=O)O (centres unmarked) |  | male Sprague-Dawley rat, plasma | oral, 1.0 mg/kg, formulation 4, together with: proline and tryptophan 100 mg/kg each | 1.08 ± 0.075 µg/mL |
| CCC[C@@]1(CCc2ccccc2)CC(O)=C([C@H](CC)c2cccc(NS(=O)(=O)c3ccc(C(F)(F)F)cn3)c2)C(=O)O1 |  | Sprague Dawley rat, male, plasma | oral, 5 mg/kg, lipid-free formulation | 1.92 ± 0.098 µg/mL |
| Cc1nc2cccc(OCC(C)(C)C(=O)NC(C)C)c2c(N)c1C(=O)O |  | female Sprague-Dawley rat, plasma | dietary, 100 mg/kg/day, day 7 | 0.149 µg/mL |
| O=C(O)C[C@H](O)C[C@H](O)/C=C/c1c(C2CC2)nc2ccccc2c1-c1ccc(F)cc1 |  | male Sprague Dawley rat, control, plasma | oral, 2.5 mg/kg, geometric mean, together with: silymarin 500 mg/kg oral | 1.5 µM |
| Cc1cc(Nc2cc3ncccc3c(N[C@@H]3C[C@H]4CC[C@@H](C3)N4CCC#N)n2)n[nH]1 |  | Sprague-Dawley rat, male, plasma | oral, 30 mg/kg/day, last day of 4 weeks | 0.00288 µg/mL |
| O=C(/C=C/c1ccc(O)c2c1[C@H](C(=O)O)[C@@H](c1ccc(O)c(O)c1)O2)O[C@H](Cc1ccc(O)c(O)c1)C(=O)O | UPLC-MS/MS | Wistar rat, microcirculation dysfunction model, plasma | oral, 100 mg/kg Salvia miltiorrhiza stem-leaf extract FT | 0.0136 ± 0.00225 µg/mL |
| Cc1cc(C(=O)NC(C)(C)COc2cccc3c2C(N)=NS(=O)(=O)N3)cc(C)n1 |  | Sprague-Dawley rat, both sexes, plasma | oral, diet, 70 mg/kg, day 91, 13-week dietary study | 0.04 µg/mL |
| CC(C)=CCC[C@](C)(O[C@@H]1O[C@H](CO)[C@@H](O)[C@H](O)[C@H]1O)[C@H]1CC[C@]2(C)[C@@H]1[C@H](O)C[C@@H]1[C@@]3(C)CC[C@H](O[C@@H]4O[C@H](CO)[C@@H](O)[C@H](O)[C@H]4O[C@@H]4O[C@H](CO)[C@@H](O)[C@H](O)[C@H]4O)C(C)(C)[C@@H]3CC[C@]12C |  | Sprague Dawley rats, male, plasma | oral, 42 mg/kg, aqueous solution, together with: co-dosed pure ginsenoside mixture | 0.8 ± 0.15 µg/mL |
| O=C(O)Cc1ccccc1Nc1c(Cl)cccc1Cl |  | rat, plasma | oral, 10 mg/kg, together with: sesamin 100 mg/kg | 2.6 ± 1.6 µg/mL |

Excerpt of the above:
| SMILES | assay | test system | setting | Cmax |
| --- | --- | --- | --- | --- |
| CCOc1cc([C@@H](CS(C)(=O)=O)N2C(=O)c3cccc(NC(C)=O)c3C2=O)ccc1O[C@@H]1O[C@H](C(=O)O)[C@@H](O)[C@H](O)[C@H]1O |  | moderate renal impairment patients, plasma | oral, 30 mg of apremilast | 0.192 µg/mL |
| CCN(CC)Cc1cc(Nc2ccnc3cc(Cl)ccc23)ccc1O |  | rat, Wistar, male, plasma | oral, 60 mg/kg, together with: myricetin 5 mg/kg iv | 1.04 ± 0.122 µg/mL |
